Results collected from several papers.
Every numbered part comes from another study and shows a few of its results, in no order.

Set 1 — method: RNA Bind-n-Seq; form: RNA; sample: in vitro; concentration: 365 nM; reference: no-protein control; direction: higher = stronger binding
Target: RNA binding protein fox-1 homolog 2, RRM domain, GST-SBP tag (RBFOX2, Homo sapiens, UniProt O43251-10, residues 100-194)
Notes: natural RNA segment, single round, ends assumed
Constant ends, left off below: GGGAGUUCUACAGUCCGACGAUC … UGGAAUUCUCGGGUGCCAA
Construct (chain): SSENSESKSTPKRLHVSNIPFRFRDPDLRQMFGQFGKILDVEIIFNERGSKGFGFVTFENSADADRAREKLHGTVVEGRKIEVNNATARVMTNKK
Strand | RBNS enrichment (R)
GGAGGGGGCUGUGUUGUGAGCCCUCCCGGUUCUCACCUCGCCUGGCACUUAACCACACCCUGGUUUUGUGUAGCCGCCAGCUCUCUUCUGGUUGGGCCUUUGAAAGGCUC | 0.353
UCCUCCUCAUCAGCUAUUUUACCCAUCUCAGAACGUCCUGUGUCUCCAUGUAGGAGAGUGGCUCUCUCAGAUCUCUCAGGGCGUCUGGUUAUAGGGAAACAAGUGGAGCA | 0.642
CAGGCCUCUUGUCCUCUCCCCAGUGGCUCCAGGCCUCACUAGUGGCAAGGGCAGGAUGAGGCUGCACCGCUGGGAAGAGUCUAUCUAAGCUCUUGGCUUGGAGUCCCGUG | 0.497
GUUCUUUCAAAGCCUUAGAGUGGCGCUACACCGGCCAGCUGGCUUAGCUGCAGGAAGGCCUCUUAGCCAGGCUAUUCCCAUUCCAUCCGCUCCCUUCUCCCCACCCAAAC | 0.597
GCAAUAAGGCCCGAUUCAUCCCACAGCACUGAUCAUCUCUCAAUGCCCCACCCCAAGCGAACGGUAAGAAGGCCUCUCUUAAGAAGGGGAGACAGAUGGCCCUAACUACU | 0.69
CUAAAGACGAUUUUUGAGCAUCCCACUGGGAUUAUUUAAUUUUUCUUUUUGACGUGUGUUUUUAGUUUAGAAGUGCUGUAUUCCACAAGGUUUAAGUCAGUGAGGUUGGA | 0.761
AGCUUCACAGUCGCCUCAUCUCUAAGCACUCCUUCCCUGCCUUCCCUGUGGUCCCACUGCGCAGGGCACAGCCACCUCAGCCACUCCCAGGCUGGACCACACGCUAACCU | 0.452
AGCCUGAUUUUGUUCCUGUUUUUCAUCUACGAGGGUAAAAGCAUACCCCGGGAAAUCCCUGUGGCCAGUUUGAACACCCCUGCUGUAACCUUCCCUCUGUUCCAUGGUCU | 0.59
AAUGGCCCAGCAUUAGCCCAGUAUUGGAAAAGACACCAGCCCAGGGGCCCUGACUCGUCACACUUCCCUUUCCUAAGCCUCUGAGGGUGGAGAUUCCCCUAGGAGCGCUU | 1.19
GAGAAAAAUACCUAAGGCUCAGGCUCACCAGCUCAGCCAAAUCUGCAAGUACCAGACCAGUGAACAGCUCCGGAGGAACAGGUUGUUCUCUGACCUCUACACGUAUGCCA | 0.692
CCCACAGGACUUACCCCUGUAUGUACAGGAUUUUUGUAUGAAAGUUUUGUUUGAUUCUGAGACUCUCUUGGGAACGCUGGAGAGCUUGUGCACAGCCUCUGGAAGGAAAG | 0.837
UUUUAUUCCUUAUGUGUCUUAUAAGGAAUAAAAUGGUCUUCAUUUGACACUUACUUUCCCAUGAACACUUGCAGUUGCUAAGGGACUUUAUUUUGUAACAUAUCAAUUAU | 0.433

Set 2 — method: universal PBM; form: double-stranded DNA, one strand shown; sample: in vitro; concentration: 600 nM; direction: higher = stronger binding
Target: Sal-like protein 4, full length isoform A (SALL4, Homo sapiens, UniProt Q9UJQ4, residues 1-1053)
UniProt Q9UJQ4, sequence (whole entry, looked up): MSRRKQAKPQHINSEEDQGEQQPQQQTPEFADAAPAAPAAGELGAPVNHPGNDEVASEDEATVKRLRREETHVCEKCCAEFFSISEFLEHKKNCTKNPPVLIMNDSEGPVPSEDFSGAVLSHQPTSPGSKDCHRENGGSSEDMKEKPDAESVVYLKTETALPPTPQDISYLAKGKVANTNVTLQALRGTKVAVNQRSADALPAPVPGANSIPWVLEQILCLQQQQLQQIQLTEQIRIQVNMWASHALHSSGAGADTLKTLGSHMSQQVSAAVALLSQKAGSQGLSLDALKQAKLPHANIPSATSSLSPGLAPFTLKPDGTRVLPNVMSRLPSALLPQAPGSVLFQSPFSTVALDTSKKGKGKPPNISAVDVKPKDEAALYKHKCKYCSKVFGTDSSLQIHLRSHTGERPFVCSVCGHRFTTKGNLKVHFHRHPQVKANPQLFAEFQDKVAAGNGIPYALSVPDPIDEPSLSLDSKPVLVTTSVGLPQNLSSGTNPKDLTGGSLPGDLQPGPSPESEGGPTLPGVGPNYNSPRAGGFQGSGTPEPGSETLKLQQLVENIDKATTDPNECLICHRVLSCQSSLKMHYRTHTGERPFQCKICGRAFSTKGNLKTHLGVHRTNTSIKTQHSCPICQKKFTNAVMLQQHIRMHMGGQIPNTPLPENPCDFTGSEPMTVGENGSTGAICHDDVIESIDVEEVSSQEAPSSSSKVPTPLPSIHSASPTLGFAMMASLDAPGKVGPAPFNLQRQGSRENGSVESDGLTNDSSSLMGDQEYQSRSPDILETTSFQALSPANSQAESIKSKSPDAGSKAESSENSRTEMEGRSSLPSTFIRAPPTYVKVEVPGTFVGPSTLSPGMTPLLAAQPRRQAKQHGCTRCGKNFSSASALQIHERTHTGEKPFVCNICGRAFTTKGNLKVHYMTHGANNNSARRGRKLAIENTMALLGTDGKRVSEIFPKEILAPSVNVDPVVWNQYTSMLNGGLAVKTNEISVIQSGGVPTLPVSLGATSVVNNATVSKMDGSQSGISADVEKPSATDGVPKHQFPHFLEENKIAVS
Notes: 8-mer, flanks averaged, mean of replicates
Strand | E-score
ATCCCCAG | -0.176
AATTACTA | 0.237
ATGGGTGG | -0.15
AATGGAGC | -0.0232
ACGGGAAC | -0.197
ACTCAGAT | 0.0946
CTGCCACC | -0.25
ATTTGAAG | 0.202
ATTGCATA | 0.239
GCGTGCTA | -0.163
GGTTGGGA | -0.209
ATAGAAAG | 0.156
ACTACTAC | 0.103
CTGGCCAC | -0.184
CCACACAG | -0.0887
ATACCTTG | 0.175
GCGTCGCA | -0.173
CACATTCC | 0.072
GCACAGCC | -0.343
GACGCGTA | 0.0513
GCAACGAA | -0.0264
GAGGTCGC | -0.289
CTAAATAA | 0.311
ATGGTAAC | 0.15
TCGGCTAA | -0.0942

Set 3 — method: RNA Bind-n-Seq; form: RNA; sample: in vitro; concentration: not given; reference: input RNA pool; direction: higher = stronger binding
Target: RING finger protein unkempt homolog, zinc fingers 1-6, GST-SBP tag (UNK, Homo sapiens, UniProt Q9C0B0, residues 30-357)
Notes: RNA with constant flanks, human and mouse sites, ends assumed
Constant ends, left off below: GGGAGUUCUACAGUCCGACGAUC … CAACAGAGGAUUGAGCAUCA
Construct (chain): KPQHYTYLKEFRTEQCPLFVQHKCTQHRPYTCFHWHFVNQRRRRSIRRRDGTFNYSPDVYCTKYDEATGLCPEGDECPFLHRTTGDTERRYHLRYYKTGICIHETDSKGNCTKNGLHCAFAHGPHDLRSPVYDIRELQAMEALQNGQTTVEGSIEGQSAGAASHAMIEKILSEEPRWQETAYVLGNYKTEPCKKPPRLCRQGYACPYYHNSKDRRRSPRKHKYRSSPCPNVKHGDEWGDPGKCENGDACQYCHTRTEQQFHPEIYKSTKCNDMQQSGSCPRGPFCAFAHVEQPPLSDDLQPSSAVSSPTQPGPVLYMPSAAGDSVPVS
Strand | bound/input enrichment
AACUUCAAGCCGGUAACUGCACACAACAGGCCUGGGAGCGAACUGUGUGAAGGACCUUAAUUCAAAUCAGAGAAAAUCAUUAUUUAUUUUUUUGUAGUAGUAAUGUCAUAUGAAUGUAUC | 3.37 ratio
UCUGUUAAUCUCAAAGUGUGGCCAACUCCCAUUUACUUAGAGGCUGAUUAUCUAGUUUUGUAGUUCCUCAGGCCUCUAAUUUAUUUUUUGCUUUCUGCUUUAUUGAUCUUUUGCAUGUCC | 0.646 ratio
AAGCUAAAGAAGGUUGUGAGGCUUGCCCGGGUUCGAGAUCAUUAUAUCUUCUCUGUUGAGUCAACGGGGGUGUUGCCACCAGAUGUGCUGGUGAGUGAAGCCAUCAAAGUACUGAUGGGG | 0.176 ratio
CAAAGGAGUCUCGAAGAGUCUCAAGGGAAAAUAGCCCAACUGGAGGGAAAACUUGUUUCAAUAGAGAAAGAAAAGAUUGAUGAAAAAUCUGAAACAGAAAAACUCUUGGAAUACAUCGAA | 0.373 ratio
ACUGCGGCUUUUGGAACAGAAAGUUGAGCUUGCGCAGCUGCAAGAAGAAUGGAAUGAACAUAAUGCCAAAAUAAUUAAAUAUAUAAGAACUAAGACAAAGCCCCAUUUGUUUUAUAUUCC | 0.695 ratio
AUCACAGCCUGUGAACUGGCCAACGGCCAUGUCCCCUUUAAGGAUAUGCCUGCCACCCAGAUGCUGCUAGAGAAACUGAACGGCACAGUGCCCUGCCUGUUGGAUACCAGCACCAUCCCC | 0.131 ratio
AAACAUCUUCUCAAGCAGUCAACGUAGAAUGCUUGGGAAAUAGUCAUAAUUACCCACAUAUAGUAAUUAAUAGAUGGUAAUUAAUUGAUCCUUGAUGUGAUGUUCUUUUGCAUAUUUCCU | 1.19 ratio
CGGUGUUGGACAUAUGAAACAUCUCUGCUGGUAGAAGAGGCCAUUAGUGAGGAACUUCCCUAUAGUGAAUACUUCGAGUACUUUGCCCCAGAUUUCACACUCCAUCCAGAUGUCAGCACC | 0.495 ratio
CAGACCUACAUCAACGGCCUCCUCACUGGGUACAGCUCCACCCUGUGGAUCGGCUUGAAUGACUUGGACACGAGCGGAGGCUGGCAGUGGUCGGACAACUCGCCCCUCAAGUACCUCAAC | 0.0533 ratio
UCCUAGAGCCCAGUAGUUUUGACUUGUGUGAUGGGGACACAGUACAGCCUGAAGCUUCUUUUAGUCUCAGCACGGAGGGGCAAUGCCACUGGGUAGGACUUCUACUUCUUGUUUUUCCUC | 0.147 ratio
AAUGGUGAAUCAGGAAAGGAUGUGGAUGAUGACAAAGAUGCAAAUAAGUCUGAGAUCAGCUUAGUGUUUGAAAUUGCUCUGAAGCGAAAUAUGCCUGUCAGUUUUGAGGUUAUUAAAGAA | 0.35 ratio

Set 4 — method: protein-binding microarray; form: double-stranded DNA, one strand shown; sample: in vitro; concentration: 2540 nM top; notes: 60-bp whole probe; together with: salmon DNA 0.4 mg/ml; reference: random background probes; direction: higher = stronger binding; constant ends, left off below: GCCTAGCAC … GTCTTGATTCGCTTGACGCTGCTG
Target: Interferon regulatory factor 3, full length, phosphomimetic (IRF3, Homo sapiens, UniProt Q14653, residues 1-427, S386D/S396D/S398D/S402D/T404D/S405D)
UniProt Q14653, sequence (whole entry, unmodified, looked up): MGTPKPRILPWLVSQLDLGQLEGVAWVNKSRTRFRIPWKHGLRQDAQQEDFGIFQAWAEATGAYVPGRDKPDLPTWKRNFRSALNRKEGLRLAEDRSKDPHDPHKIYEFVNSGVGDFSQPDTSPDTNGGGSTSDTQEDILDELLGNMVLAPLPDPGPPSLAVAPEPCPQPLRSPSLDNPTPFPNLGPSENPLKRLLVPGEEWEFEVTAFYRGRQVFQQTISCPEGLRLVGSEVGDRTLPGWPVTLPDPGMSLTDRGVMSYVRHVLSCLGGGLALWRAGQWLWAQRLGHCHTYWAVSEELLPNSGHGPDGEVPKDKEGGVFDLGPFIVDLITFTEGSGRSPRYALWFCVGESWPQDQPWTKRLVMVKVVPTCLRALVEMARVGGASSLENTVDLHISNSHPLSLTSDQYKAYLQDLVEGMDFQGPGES
Strand | fitted relative affinity [z-score]
GACGATATCTGTATCGAGACGTGCTAG | 0.676
GGTAGGCGGGGCCCCTGGCCGTGCTAG | -1.17
TCAGTTCTAAATATCTTACTGTGCTAG | 1.35
GACGGTCTCGGAATCGGGACGTGCTAG | 1.23
TCACTTCTTGAACTCTTACTGTGCTAG | 1.45
TTAGGTATCGGTTTCGGTTGGTGCTAG | 7.31
GACGGACTGCTTCTCCCGACGTGCTAG | -0.198
TTAGGACTGGGGACTCGGTTAGTGCTA | -1.15
TTTTTTTTTTTTTTTGGAATGTGCTAG | 1.6
GACGGTTTCGGACTGGTGACGTGCTAG | 4.59
GACGGTGTCCTTCTCCTGACGTGCTAG | 4.06
TTAAATATCGGGTTTCGATTAGTGCTA | 2.32
TTAGGACTGGGTTTCCGTTAGTGCTAG | 1.62
CTGACTTTGGAGATGACTCAGTGCTAG | -0.232
TTAGGACCGCTTTTCCTTTAGTGCTAG | 1.33
GACGGTTTCCTTATTCTGACGTGCTAG | 7.28
CCGAAAATGCCCTTTTGGTGAGTGCTA | 1.43
TCAAGTTGTACTTTCTAACTGTGCTAG | 1.75
TTAGGTTTCGGAACTGGGTTAGTGCTA | 7.64
TATAATTTTGTCATCTATAAGTGCTAG | 0.379
GAAGGTCTCGGTCTCGGGACGTGCTAG | 0.648
GACCATTTCGGGTATCGAGACGTGCTA | 2.3
TTAGGTTTCGGTCTCGGTGAGTGCTAG | 9.05
CTTGGCTTCTCCCACAGGTGGTGCTAG | -0.664
TTAGATCCCAGTTTCGATTAGTGCTAG | 3.26

Excerpt of the above (set 2):
Strand | E-score
CTGCCACC | -0.25
ATTTGAAG | 0.202
ATTGCATA | 0.239
GCGTGCTA | -0.163
GGTTGGGA | -0.209
